Measurements of several laboratories.
A part holds a random share of what one study measured. Changes are numbered by the printed parent chain.

Block 1
Target: ABI1, truncated, D143A, DHFR fusion (Arabidopsis thaliana)
Method: DHFR PCA, deep sequencing
Matrix: yeast
Setting: methotrexate growth selection, single substitutions
With: (+)-ABA 0.11 µM
Reference: wild-type fitted maximum
Direction: higher = stronger binding
Endpoint: relative binding score
Starting sequence: PYL1, truncated, DHFR fusion (Arabidopsis thaliana); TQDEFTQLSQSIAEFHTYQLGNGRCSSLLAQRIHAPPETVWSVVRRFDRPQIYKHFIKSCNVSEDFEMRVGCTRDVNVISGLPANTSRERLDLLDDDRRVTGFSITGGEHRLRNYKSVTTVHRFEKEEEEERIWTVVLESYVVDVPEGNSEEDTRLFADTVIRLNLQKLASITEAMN
T6G: 34.6%
D95F: -14.2%
R49Y: -3.09%
L112E: -4.29%
E128A: 36.3%
P50C: -0.636%
F103P: -6.36%
L8N: -3.39%
D96L: -4.64%
T1D: 35.7%
D75V: 46.2%
H110A: 28.4%
F5E: 7%
D95H: -11.7%
I57E: -7.82%

Block 2
Target: CCNE2, cyclin fold, Cln2 fusion (human)
Method: yeast growth competition, sequencing
Matrix: yeast
Setting: strong parent motif
Reference: not given
Direction: higher = stronger binding
Endpoint: normalised enrichment score
Starting sequence: RBL2 docking peptide (human); STTRRRLFVENDS; partner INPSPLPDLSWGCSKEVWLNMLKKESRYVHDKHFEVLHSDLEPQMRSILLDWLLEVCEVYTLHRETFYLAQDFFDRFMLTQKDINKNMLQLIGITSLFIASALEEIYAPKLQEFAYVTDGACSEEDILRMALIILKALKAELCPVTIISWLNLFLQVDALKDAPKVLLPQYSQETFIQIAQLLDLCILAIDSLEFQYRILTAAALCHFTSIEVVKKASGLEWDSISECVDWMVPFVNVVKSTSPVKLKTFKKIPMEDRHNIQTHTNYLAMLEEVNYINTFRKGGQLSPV
STTRRRLFFENDS [V9F]: 4.81
STTRKRLFVENDS [R5K]: 1.16
STTRRRLFVENDF [S13F]: 5.22
STTRRRLFVENDW [S13W]: 5.02
STTRRRLFVEGDS [N11G]: 4.55
STTRRRKFVENDS [L7K]: 0.194
STTRRRLFVETDS [N11T]: 4.28
STTRRYLFVENDS [R6Y]: 0.393
LTTRRRLFVENDS [S1L]: 4.38
STARRRLFVENDS [T3A]: 5.62
STTRRRLDVENDS [F8D]: 0.503
STTRRRLTVENDS [F8T]: 0.535
STTRRRLFVSNDS [E10S]: 2.58
STTRRRAFVENDS [L7A]: 1.44
STPRRRLFVENDS [T3P]: 3.05
SGTRRRLFVENDS [T2G]: 5.2
STTRRRLFVEYDS [N11Y]: 4.45
STTRRRLFVNNDS [E10N]: 2.8
STTRRRIFVENDS [L7I]: 0.963
STTSRRLFVENDS [R4S]: 0.52
STTRRFLFVENDS [R6F]: 0.885
STTRRRLFVENGS [D12G]: 4.28
STTRKRLLVENDS [R5K F8L]: 0.0378
STTKRRLFVENDS [R4K]: 3.26
STTRRRLFVENHS [D12H]: 3.86

Block 3
Target: BATF, bZIP domain (human)
Method: DHFR protein complementation
Matrix: yeast
Setting: single substitutions, most at no-binding floor
Reference: wild-type JUN-FOS pair
Direction: higher = stronger binding
Endpoint: binding fitness
Starting sequence: JUN, bZIP domain (human); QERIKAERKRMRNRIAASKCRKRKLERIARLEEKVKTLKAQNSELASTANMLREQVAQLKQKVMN; partner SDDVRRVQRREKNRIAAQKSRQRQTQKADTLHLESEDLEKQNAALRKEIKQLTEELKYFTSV
L52I: -0.169 natural log
K34M: -0.153 natural log
M51P: -0.877 natural log
A29C: -0.184 natural log
E44S: -0.0785 natural log
L38Y: -0.763 natural log
Q55F: -0.385 natural log
E32K: -0.103 natural log
K34I: -0.0879 natural log
K36M: 0.0842 natural log
T37H: 0.129 natural log
E32M: -0.174 natural log
N42G: -0.26 natural log
M51A: 0.105 natural log
Q55I: -0.283 natural log
N42M: -0.532 natural log
L31G: -0.343 natural log
R53M: -0.423 natural log

Block 4
Target: Sal-like protein 4, full length isoform B (SALL4, Homo sapiens, UniProt Q9UJQ4-2, residues 1-616)
Method: universal PBM
Form: double-stranded DNA, one strand shown
Matrix: in vitro
Tested at: not given
Setting: 8-mer, flanks averaged, mean of replicates
Direction: higher = stronger binding
Endpoint: E-score
CCTTCGTA: -0.123
AATAAAGG: 0.0764
GCAACCAC: -0.267
GCTTTAAC: 0.025
GCACCGAA: -0.116
GCAATCTA: 0.11
ACCTATTG: 0.208
CCGAAGTC: -0.0989
GACTCGGC: -0.361
ATTGTGAA: 0.209
CACCGTAA: 0.0471
ACCAACAC: 0.0427
ATCTGGCA: -0.016
ACCCAGAT: -0.0795
ACAAGGAG: 0.0372
AAAGCCTG: -0.054

Block 5
Target: Fragile X messenger ribonucleoprotein 1, C-terminal low-complexity region (Fmr1, Mus musculus, UniProt P35922)
Method: RNA Bind-n-Seq
Form: RNA
Matrix: in vitro
Tested at: 200 nM
Setting: whole 134-nt RNA, ends assumed
With: 150 mM KCl
Reference: input library
Direction: higher = stronger binding
Endpoint: log2 enrichment
Shared flanks, not repeated: GGGAGUUCUACAGUCCGACGAUC … UGGAAUUCUCGGGUGUCAAGG
CACAGACAACACGCACCCACACAGACACAGAGGGAAGGGGUUGGGAUGGGGACAGGGUGCACAGCAGGGCGGGGUUGGACCCCAGCCCCU: 1.33
CUGUGCUACACAUCGUAUGUACCGAAUCGGGGAAAGGGGAAAAAAAGGGGAAAAAAAGGGGAAAGUAUUAUGUUACGCCGUUCGGAUCUG: -0.395
UCAAGUCCUGUGCUACACAUCGUAUGUACCGAAUCGGGAAAGGAAAGGGGAAAGGAAAGUAUUAUGUUACGCCGUUCGGAUCUGCACUUC: -0.445
CCUCAAGUCCUGUGCUACACAUCGUAUGUACCGAAUCGGGGAAGGAAGGAAGGAAAGUAUUAUGUUACGCCGUUCGGAUCUGCACUUCCA: -0.194
CUGUGCUACACAUCGUAUGUACCGAAUCGGGGAAAAAAAGGAAAAAAAGGGAAAAAAAGGGGAAAGUAUUAUGUUACGCCGUUCGGAUCU: -0.256
GUCCUGUGCUACACAUCGUAUGUACCGAAUCAAACCCCCAAAUUUUUUUAAACCCAAAAAAGUAUUAUGUUACGCCGUUCGGAUCUGCAC: 0.0945
UGGUAGGUGGAUUUUGUUUAUUUUUUUAGCUCAUUUCCAGGGGUGGGAAUUUUUUUUUAAUAUGUGUCAUGAAUAAAGUUGUUUUUGAAA: 0.0283
CACAGACAACACGCACCCACACAGACACAGAGGGAAGGGGUUGGGAUGGGGACAGGGUGCACAGCAGAAAGGGGUAGGACCCCAGCCCCU: 1.2
GUCCUGUGCUACACAUCGUAUGUACCGAAUCGGGGAAAAAGGGGUUUGGGGUUUGGGGAAAGUAUUAUGUUACGCCGUUCGGAUCUGCAC: 0.765
CAAGUCCUGUGCUACACAUCGUAUGUACCGAAUCGGAAAGGAAAGGAAAAAAAGGAAAGUAUUAUGUUACGCCGUUCGGAUCUGCACUUC: -0.685
CACAGACAACACGCACCCACACAGACACAGAGGGAAGGGGUUGGGAUGGCGACAGGGUGCACAGCAGGGCGGGGUAGGACCCCAGCCCCU: 0.76
CCUGUGCUACACAUCGUAUGUACCGAAUCGGGGUUUUUUUGGGGUUUUUUUGGGGUGGGGAAAGUAUUAUGUUACGCCGUUCGGAUCUGC: 0.518
CACAGACAACACGCACCCACACAGACACAGAGGGAUGGGGUUGGGAUGGGGACAGGGUGCACAGCAGGGCGGGGUAGGACCCCAGCCCCU: 1.36
UGUGCGGGAGACAGGCGCCAACGGCACCUCUUUCAGUGUCCGCAAGACAGCCUACUGCGACAUCCACACGCCUCCAGGUUCAGCACGCCG: -0.0253

Block 6
Target: RNA binding protein fox-1 homolog 2, RRM domain, GST-SBP tag (RBFOX2, Homo sapiens, UniProt O43251-10, residues 100-194)
Method: RNA Bind-n-Seq
Form: RNA
Matrix: in vitro
Tested at: 365 nM
Setting: natural RNA segment, single round, ends assumed
Reference: no-protein control
Direction: higher = stronger binding
Endpoint: RBNS enrichment (R)
Shared flanks, not repeated: GGGAGUUCUACAGUCCGACGAUC … UGGAAUUCUCGGGUGCCAA
Construct (chain): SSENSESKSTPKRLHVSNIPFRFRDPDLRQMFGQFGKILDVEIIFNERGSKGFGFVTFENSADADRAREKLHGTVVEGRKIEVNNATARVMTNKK
CCUGCACUGAGCUGGCCUCACCAGUCGACUGAGGGAGCCCCUCAGCCCUGACCUUCUCCUGACCUGGCCUUUGACUCCCCGGAGUGGAGUGGGGUGGGAGAACCUCCUGG: 0.347
UGGGUUCUCCCAGUUACGGAAACCUUUUAAAGAUCCACAUUAGCCUUUUAGAAUAAAGCUGCUACUUUAACAGAGCACCUGGCGUGGGCCAAGUGCCUGAUACUCCCUUA: 0.529
UGGUGAGACUGCUAAUUGAUUCAGUGUAUGAUAGUUCACACGGGAUGAGAACCUUGGCCUUUAUCACCCAAACAAGAACUCUCUAUGAGAUUGGUUGACGUGAGUUGGUU: 0.857
UGAUGAGACUGUUAGGAUUGAUAAACAUUUGUUGUUUGAACCCAGCUAUCCAAACUGGGGAAGAAGGGGAAAUGGUUGUUACCAACAAUCUCUAGUAGUUAUUUUAAUCU: 0.24
ACCGUCCCUGUGCUGUGGUCCCUUCUGGGCUCUAGUGUCAGGCCGGAGAACACCAGCCCCACCUGGACCCCGUGACCUUUGCCCUCUGACCUGCCACGGCCACCUCCGAG: 0.309
CUCUUGUUCGCAACUCAGAUCACACUCCAAUUGUGGUGACAGACUCUUCCAUAUCAGGCUGGUUUUGCUUUGUUCCGCCUUUACACAAACUCAAGUGGAGCUGAACUUUC: 0.418
UUAUCAUUUCCAUCUGUCUGGUUAUGUCAAGUUAACUCAGAAAAAGAAGAGACACUGACCAACCCUGAGAGGCCCAACAGGGCAGAGAUGGAGGCCUGCCCAGAUGAAGA: 0.458
AGACCGUGGAUUUGGCUUAGCACUGUUAAGCAUACAGGUAUCUACAGGCCUGGUGUGGUUUGUUCUGGUCUCAUUCAGGUUUAGGGGUGCUCCUGCACAGGCUUCUGCAC: 0.393
UGUGUCCUCAGAAUUAAGAACUGGUGUUUGUAAUAAAUCAAAGCAUGCUUAUGUCAGAAUGUGUGGGCUUUGGUUUAAAGGACAUAACCUCUCCGCUUGUGACAAAGUCA: 1.62
UGGCUUUAGGUGAGCCUUCACCUUUUGGUGCCUUCGUUUCCUCAUUUAGCACCUACCUCCUAGAGCUGUUUUGGGAGUCAAAUGCGCUGACGUAUAUAAAGUGCUUUGCA: 0.665
CGCCCUCUCUAACUGGCCUGGCUCUGGAAGGGCUGGUGAGGACUCUGCCUCCUUGCCUGCCUACAAGGUGCCUGGUUUGCAGCAGGCUCUCCGCUCUUUCCAGCAAAGCU: 0.247
UAAAAUGGAACUAAAGAUAGAAGGAGGACUGUAGGAAGAAAUGGAAUAAUUUAAAUGUGAGGAAAGAUAUCUGUGGUAGACAUGUCCUUCCAUGACUAAUUUCUAAUUGU: 1.09

Block 7
Target: Histone acetyltransferase KAT6A, both winged helices, GST fusion (KAT6A, Homo sapiens, UniProt Q92794, residues 1-181)
Method: protein binding microarray
Form: double-stranded DNA, one strand shown
Matrix: in vitro
Tested at: not given
Setting: 8-mer, flanks averaged, mean of 2 arrays, mostly near background
Reference: not given
Direction: higher = stronger binding
Endpoint: E-score
Construct (chain): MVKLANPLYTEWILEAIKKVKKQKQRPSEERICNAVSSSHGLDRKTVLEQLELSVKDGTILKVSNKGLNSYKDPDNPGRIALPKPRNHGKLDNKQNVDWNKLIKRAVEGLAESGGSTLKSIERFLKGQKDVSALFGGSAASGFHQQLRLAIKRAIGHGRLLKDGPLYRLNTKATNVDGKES
CCATCGGC: 0.0547
CTTCAAAA: -0.189
ACGTACAT: -0.0389
CTCTTCAA: -0.0806
AATAGTGA: -0.0328
ATTGAGGG: -0.137
CACATATG: -0.157
AGCATACC: -0.145
AAGACTCT: -0.115
ATGTTTTC: 0.0524
AGAGTGAA: -0.263
GCGACAAC: 0.202
AGTTAGAA: -0.0908
AGCCGCCC: 0.174
AACGGTAC: 0.195
CCATTGCA: -0.104
AACGCCCC: 0.0438
AGCCACAT: -0.093

For quick reference, copied from above (block 3):
M51P: -0.877 natural log
A29C: -0.184 natural log
E44S: -0.0785 natural log
L38Y: -0.763 natural log
Q55F: -0.385 natural log
E32K: -0.103 natural log
K34I: -0.0879 natural log
K36M: 0.0842 natural log
T37H: 0.129 natural log
E32M: -0.174 natural log
N42G: -0.26 natural log
